Published values pooled from the literature.
Each line is one published result; not all experiments were run side by side. ± marks the error that the study gave.
Histone acetyltransferase RTT109 with Vps75: Histone acetyltransferase RTT109, with Vps75 (Saccharomyces cerevisiae, UniProt Q07794)
Sequence of UniProt Q07794 (whole entry, looked up): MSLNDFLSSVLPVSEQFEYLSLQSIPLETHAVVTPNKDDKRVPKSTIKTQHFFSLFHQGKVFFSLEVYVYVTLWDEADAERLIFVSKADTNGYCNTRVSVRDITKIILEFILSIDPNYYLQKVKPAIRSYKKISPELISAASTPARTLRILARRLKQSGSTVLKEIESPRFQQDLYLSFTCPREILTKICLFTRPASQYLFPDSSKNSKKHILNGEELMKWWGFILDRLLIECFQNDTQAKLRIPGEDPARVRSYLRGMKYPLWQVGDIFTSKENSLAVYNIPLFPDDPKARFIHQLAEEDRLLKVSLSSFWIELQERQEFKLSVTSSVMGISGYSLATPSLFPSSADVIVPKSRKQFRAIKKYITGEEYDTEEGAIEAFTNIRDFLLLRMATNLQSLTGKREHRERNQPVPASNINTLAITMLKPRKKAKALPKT
ADRA2C: Alpha-2C adrenergic receptor (ADRA2C, Homo sapiens, UniProt P18825)
Sequence of UniProt P18825 (whole entry, looked up): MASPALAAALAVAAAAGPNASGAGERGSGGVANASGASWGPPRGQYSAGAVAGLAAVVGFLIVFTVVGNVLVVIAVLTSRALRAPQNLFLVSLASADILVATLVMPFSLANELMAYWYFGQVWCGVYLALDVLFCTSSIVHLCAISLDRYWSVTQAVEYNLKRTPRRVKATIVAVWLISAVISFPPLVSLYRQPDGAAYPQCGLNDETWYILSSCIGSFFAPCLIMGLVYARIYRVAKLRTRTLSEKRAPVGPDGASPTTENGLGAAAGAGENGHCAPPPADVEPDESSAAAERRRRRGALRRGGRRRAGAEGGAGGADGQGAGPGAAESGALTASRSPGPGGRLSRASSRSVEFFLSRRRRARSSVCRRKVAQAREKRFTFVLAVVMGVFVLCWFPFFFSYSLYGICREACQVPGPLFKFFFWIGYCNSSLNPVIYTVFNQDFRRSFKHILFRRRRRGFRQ
Sequence of UniProt P34995 (whole entry, unmodified, looked up): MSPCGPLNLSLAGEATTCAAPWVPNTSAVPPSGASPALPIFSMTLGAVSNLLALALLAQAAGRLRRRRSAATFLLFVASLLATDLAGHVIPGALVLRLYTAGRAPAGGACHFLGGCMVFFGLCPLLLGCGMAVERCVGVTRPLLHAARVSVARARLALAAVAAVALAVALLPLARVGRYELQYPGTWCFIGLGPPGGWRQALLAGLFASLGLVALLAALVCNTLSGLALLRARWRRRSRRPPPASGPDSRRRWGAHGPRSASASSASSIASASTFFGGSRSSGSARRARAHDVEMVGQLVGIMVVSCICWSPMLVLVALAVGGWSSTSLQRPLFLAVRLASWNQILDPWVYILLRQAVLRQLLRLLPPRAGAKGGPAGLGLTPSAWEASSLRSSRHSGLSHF
Sequence of UniProt P42680 (whole entry, looked up): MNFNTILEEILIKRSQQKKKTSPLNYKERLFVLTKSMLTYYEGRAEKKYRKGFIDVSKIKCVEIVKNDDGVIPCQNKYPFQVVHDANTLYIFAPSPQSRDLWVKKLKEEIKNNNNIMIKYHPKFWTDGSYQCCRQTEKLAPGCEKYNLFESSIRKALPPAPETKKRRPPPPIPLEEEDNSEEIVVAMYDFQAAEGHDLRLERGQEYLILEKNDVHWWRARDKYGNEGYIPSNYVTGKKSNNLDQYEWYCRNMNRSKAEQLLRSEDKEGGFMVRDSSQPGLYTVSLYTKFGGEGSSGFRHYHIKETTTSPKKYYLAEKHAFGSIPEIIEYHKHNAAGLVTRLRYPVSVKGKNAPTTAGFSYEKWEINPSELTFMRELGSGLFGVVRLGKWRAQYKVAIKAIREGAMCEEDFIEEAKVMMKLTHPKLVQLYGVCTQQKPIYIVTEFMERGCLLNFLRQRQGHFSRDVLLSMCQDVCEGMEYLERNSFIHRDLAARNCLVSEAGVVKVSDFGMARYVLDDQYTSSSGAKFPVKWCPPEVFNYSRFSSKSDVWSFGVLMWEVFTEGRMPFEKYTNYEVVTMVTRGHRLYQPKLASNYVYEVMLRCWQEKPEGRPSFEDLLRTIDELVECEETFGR
Sequence of UniProt Q07343 (whole entry, looked up): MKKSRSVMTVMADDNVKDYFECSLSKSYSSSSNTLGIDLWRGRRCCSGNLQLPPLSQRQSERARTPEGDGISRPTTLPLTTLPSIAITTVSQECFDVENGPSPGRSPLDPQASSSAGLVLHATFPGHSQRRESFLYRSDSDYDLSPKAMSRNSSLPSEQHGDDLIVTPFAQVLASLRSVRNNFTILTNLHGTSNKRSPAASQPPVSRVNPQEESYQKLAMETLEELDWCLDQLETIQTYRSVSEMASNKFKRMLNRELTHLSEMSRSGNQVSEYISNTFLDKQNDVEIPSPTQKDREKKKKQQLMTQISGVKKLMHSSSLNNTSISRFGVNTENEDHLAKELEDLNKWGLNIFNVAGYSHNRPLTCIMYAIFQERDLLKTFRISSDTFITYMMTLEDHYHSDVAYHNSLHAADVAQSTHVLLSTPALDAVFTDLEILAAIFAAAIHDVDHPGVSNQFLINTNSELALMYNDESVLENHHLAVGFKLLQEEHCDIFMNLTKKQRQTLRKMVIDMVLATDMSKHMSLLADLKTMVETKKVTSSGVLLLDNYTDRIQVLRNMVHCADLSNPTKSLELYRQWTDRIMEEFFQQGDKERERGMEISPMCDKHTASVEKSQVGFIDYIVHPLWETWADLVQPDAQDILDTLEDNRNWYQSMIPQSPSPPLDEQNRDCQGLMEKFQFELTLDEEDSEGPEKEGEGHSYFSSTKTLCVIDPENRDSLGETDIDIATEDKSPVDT
Sequence of UniProt P51575 (whole entry, unmodified, looked up): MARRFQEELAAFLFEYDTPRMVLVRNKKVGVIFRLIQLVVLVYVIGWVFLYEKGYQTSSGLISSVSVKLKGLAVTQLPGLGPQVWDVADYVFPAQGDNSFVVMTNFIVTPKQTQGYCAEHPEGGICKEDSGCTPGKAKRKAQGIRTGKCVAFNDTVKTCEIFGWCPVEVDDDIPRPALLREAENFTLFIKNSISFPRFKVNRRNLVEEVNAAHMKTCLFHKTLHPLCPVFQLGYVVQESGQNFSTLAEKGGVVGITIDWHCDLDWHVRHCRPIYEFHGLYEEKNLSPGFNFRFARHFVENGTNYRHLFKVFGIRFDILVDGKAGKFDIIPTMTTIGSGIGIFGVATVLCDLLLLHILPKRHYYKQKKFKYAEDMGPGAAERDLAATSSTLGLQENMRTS
Sequence of UniProt Q06124 (whole entry, looked up): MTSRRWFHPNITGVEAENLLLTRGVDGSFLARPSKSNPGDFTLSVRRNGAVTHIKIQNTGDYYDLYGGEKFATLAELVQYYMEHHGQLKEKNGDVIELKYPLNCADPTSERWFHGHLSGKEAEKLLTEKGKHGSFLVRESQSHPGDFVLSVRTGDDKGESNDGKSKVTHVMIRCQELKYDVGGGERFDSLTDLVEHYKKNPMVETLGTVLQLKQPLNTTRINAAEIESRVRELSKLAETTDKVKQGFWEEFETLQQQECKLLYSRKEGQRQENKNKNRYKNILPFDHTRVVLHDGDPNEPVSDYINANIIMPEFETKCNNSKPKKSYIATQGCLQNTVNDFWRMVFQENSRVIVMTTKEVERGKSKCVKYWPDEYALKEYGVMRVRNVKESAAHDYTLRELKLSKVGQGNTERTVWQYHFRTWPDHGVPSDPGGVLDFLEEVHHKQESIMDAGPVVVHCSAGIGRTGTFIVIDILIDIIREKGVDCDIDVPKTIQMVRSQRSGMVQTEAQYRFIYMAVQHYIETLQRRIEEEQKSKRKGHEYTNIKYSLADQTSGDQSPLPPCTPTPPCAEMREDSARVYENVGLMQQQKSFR
Sequence of UniProt Q8BHY3 (whole entry, looked up): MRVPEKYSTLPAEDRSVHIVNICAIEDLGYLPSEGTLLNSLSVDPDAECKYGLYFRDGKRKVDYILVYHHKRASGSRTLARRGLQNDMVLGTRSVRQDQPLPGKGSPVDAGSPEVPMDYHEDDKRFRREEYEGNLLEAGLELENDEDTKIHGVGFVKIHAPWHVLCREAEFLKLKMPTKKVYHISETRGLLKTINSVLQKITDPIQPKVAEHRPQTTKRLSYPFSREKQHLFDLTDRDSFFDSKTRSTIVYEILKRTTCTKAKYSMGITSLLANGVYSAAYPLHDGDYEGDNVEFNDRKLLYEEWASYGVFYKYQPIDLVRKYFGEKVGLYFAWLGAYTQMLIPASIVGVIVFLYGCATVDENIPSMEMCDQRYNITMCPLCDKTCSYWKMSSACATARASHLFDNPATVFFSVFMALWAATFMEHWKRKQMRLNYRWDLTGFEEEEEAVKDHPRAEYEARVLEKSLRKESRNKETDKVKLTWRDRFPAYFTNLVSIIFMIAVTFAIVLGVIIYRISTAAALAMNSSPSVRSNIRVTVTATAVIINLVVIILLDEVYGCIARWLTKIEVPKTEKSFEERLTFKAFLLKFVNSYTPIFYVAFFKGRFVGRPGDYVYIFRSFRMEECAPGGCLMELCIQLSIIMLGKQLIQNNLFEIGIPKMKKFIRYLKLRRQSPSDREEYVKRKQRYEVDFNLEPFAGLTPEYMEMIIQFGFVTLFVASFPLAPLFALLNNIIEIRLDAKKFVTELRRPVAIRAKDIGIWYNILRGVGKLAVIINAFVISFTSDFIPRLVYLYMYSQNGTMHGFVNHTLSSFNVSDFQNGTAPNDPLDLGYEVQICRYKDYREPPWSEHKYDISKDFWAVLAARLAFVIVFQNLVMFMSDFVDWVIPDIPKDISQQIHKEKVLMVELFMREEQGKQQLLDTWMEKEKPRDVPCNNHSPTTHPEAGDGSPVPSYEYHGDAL
Sequence of UniProt Q3UFF7 (whole entry, looked up): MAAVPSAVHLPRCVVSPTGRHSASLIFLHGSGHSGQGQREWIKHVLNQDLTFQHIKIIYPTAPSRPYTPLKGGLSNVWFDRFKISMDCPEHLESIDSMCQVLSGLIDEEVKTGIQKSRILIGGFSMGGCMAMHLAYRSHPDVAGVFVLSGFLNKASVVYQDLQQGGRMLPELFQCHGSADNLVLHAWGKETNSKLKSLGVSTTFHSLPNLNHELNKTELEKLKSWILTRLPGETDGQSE

| SMILES | target | test | test system | conditions | endpoint | value |
| --- | --- | --- | --- | --- | --- | --- |
| CC(C)(C)c1ccc(S(=O)(=O)Nc2cccc(Cl)c2)cc1 | Histone acetyltransferase RTT109 with Vps75 | enzyme activity, inhibitor, HTS, CPM-based, dose response | – | – | IC50 | > 125 µM |
| Nc1ncnc2c1ncn2[C@@H]1O[C@H](COP(=O)(O)OP(=O)(O)OP(=O)(O)O)[C@@H](O)[C@H]1O | P2X purinoceptor 1 (P2RX1, Homo sapiens, UniProt P51575, K136E/K138D) | ion current, agonist, two-electrode voltage clamp | – | 2 | EC50 | 2.15 µM |
| Nc1nc(CCc2ccc(Cl)cc2)nn1S(=O)(=O)c1ccc2ncsc2c1 | Lysophospholipase-like protein 1 (Mus musculus, UniProt Q3UFF7) | enzyme activity, activator, gel-based ABPP | – | – | EC50 | 9.8 µM |
| COc1cc(Nc2ncc3c(n2)-c2ccc(Cl)cc2C(c2c(F)cccc2OC)=NC3)ccc1C(=O)O | Tyrosine-protein kinase Tec (TEC, Homo sapiens, UniProt P42680) | binding, kinobead competition | MV4-11 cell lysate | – | EC50 | 18.6 µM |
| CCc1cnc(C)c(C)n1 | Olfactory receptor 5K16 (Or5k16, Mus musculus, UniProt Q7TS48) | cAMP, agonist | HEK293 transfected with Or5k16 | – | EC50 | > 1500 µM |
| CC(=O)c1cc([N+](=O)[O-])c(Sc2cccc(Cl)c2Cl)s1 | Calpain-1 catalytic subunit (CAPN1, Homo sapiens, UniProt P07384) | enzyme activity, inhibitor | – | – | EC50 | > 50 µM |
| Nc1ccc(CNc2ccncc2)c(F)c1 | ADRA2C | agonist, FLIPR reporter | reporter cell line | – | EC50 | 0.9 µM |
| Cn1cnc2ccc(Nc3c(F)ccc(NS(=O)(=O)N4CC(F)C4)c3Cl)c(Cl)c2c1=O | RAF proto-oncogene serine/threonine-protein kinase (RAF1, Homo sapiens, UniProt P04049) | target engagement, isothermal dose-response CETSA, LC-MS | A-375 | 30 min, 37 °C, wild type | EC50 | 0.35 µM |
| O=C(Nc1ccc([N+](=O)[O-])cc1Cl)c1cc(Cl)ccc1O | Anoctamin-1 (Ano1, Mus musculus, UniProt Q8BHY3) | ion current, patch clamp | HEK293T | – | EC50 | 1.27 ± 0.02 µM |
| Cc1nn(-c2nc3c(F)cc(F)cc3s2)c(O)c1C(c1ccccc1C(=O)O)c1c(C)nn(-c2nc3c(F)cc(F)cc3s2)c1O | Cyclic GMP-AMP synthase, catalytic domain; with DNA (CGAS, Homo sapiens, UniProt Q8N884) | cGAS phase separation, inhibitor | – | – | EC50 | 1.19 µM |
| CCn1c(-c2nc3ccc(C(=O)N4CCCC(N)C4)cc3n2C)cc2ccccc21 (stereo not shown) | ADRA2C | agonist, TR-FRET | – | – | EC50 | > 31.6 µM |
| CC=C(C#N)C(=O)N1CCC[C@@H](n2nc(-c3ccc(Oc4ccccc4)cc3)c3c(N)ncnc32)C1 | Tyrosine-protein kinase BTK (BTK, Homo sapiens, UniProt Q06187) | target occupancy, PP-BODIPY competition labelling | Ramos | 1 h | EC50 | 0.0147 ± 0.0035 µM |
| CC[C@H](C)[C@H](NC(=O)[C@H](Cc1ccc(OP(=O)(O)O)cc1)NC(=O)[C@H](CC(N)=O)NC(=O)[C@H](CC(C)C)NC(=O)[C@@H](N)CO)C(=O)N[C@@H](CC(=O)O)C(=O)N[C@@H](CC(C)C)C(=O)N[C@@H](CC(=O)O)C(=O)N[C@@H](CC(C)C)C(=O)N[C@H](C(=O)N[C@@H](CCCCN)C(=O)O)C(C)C | Tyrosine-protein phosphatase non-receptor type 11 (PTPN11, Homo sapiens, UniProt Q06124) | phosphatase activity, activator | – | pH 7.0, together with: DiFMUP substrate | EC50 | 3.9 ± 0.3 µM |
| CCc1c(C)nc(-c2ccc(Cl)s2)nc1Nc1ccc(CC(=O)O)cc1 | 3',5'-cyclic-AMP phosphodiesterase 4B (PDE4B, Homo sapiens, UniProt Q07343) | reporter gene, dual luciferase | – | – | EC50 | 4.27 ± 0.845 µM |
| CCCCC[C@H](O)/C=C/[C@H]1[C@H](O)CC(=O)[C@@H]1C/C=C\CCCC(=O)O | Prostaglandin E2 receptor EP1 subtype (PTGER1, Homo sapiens, UniProt P34995, S42A) | IP1 accumulation, agonist | AD293 | EP1 S42A mutant | EC50 | 0.0122 µM |
| COc1cc(Nc2ncc3c(n2)-c2ccc(Cl)cc2C(c2c(F)cccc2OC)=NC3)ccc1C(=O)NCCOCCOCCNC(=O)COc1cccc2c1C(=O)N(C1CCC(=O)NC1=O)C2=O (stereo not shown) | Serine/threonine-protein kinase PLK4 (PLK4, Homo sapiens, UniProt O00444) | binding, kinobead competition | MV4-11 cell lysate | – | EC50 | > 30 µM |
| Cc1ccc(NS(=O)(=O)c2ccc(C(C)(C)C)cc2)cc1Cl | Histone acetyltransferase RTT109 with Vps75 | enzyme activity, inhibitor, HTS, CPM-based, dose response | – | – | IC50 | > 125 µM |
| Nc1ncnc2c1ncn2[C@@H]1O[C@H](COP(=O)(O)OP(=O)(O)OP(=O)(O)O)[C@@H](O)[C@H]1O | Acyl-coenzyme A oxidase acox-1.1 (acox-1.1, Caenorhabditis elegans, UniProt O62140) | enzyme activity, activator, enzyme-coupled kinetic | – | – | EC50 | 88.8 ± 8.6 µM |
| C[C@H](CCC(C)(C)O)[C@H]1CC[C@H]2[C@@H]3CC=C4C[C@@](C)(O)CC[C@]4(C)[C@H]3CC[C@]12C | Glutamate NMDA receptor; GRIN1/GRIN2A (Homo sapiens, UniProt Q05586+Q12879) | ion current, positive modulator, automated patch clamp | HEK293 (tetracycline-inducible) | no 24(S)-HC, together with: glutamate 1 µM and glycine | EC50 | 0.103 µM |
